# Measured values gathered from unrelated publications.
# Protocols differ between the studies behind these lines. Numbers after ± are the reported error.
SMILES,test,test system,setting,how to read,quantity,value
CC(C)(Sc1ccncc1-c1ccc(C#N)c2ccccc12)C(=O)OC1OC(C(=O)O)C(O)C(O)C1O (stereo not shown),,"adult men, plasma","oral, 15 mg verinurad, mild renal impairment",reference: impaired over normal renal function,Cmax ratio,129%
O=C(O[C@@H]1Cc2c(O)cc(O)cc2O[C@@H]1c1cc(O)c(O)c(O)c1)c1cc(O)c(O)c(O)c1,"sulfation, substrate",human liver cytosol,"10 min, pH 7.4",,Km,0.24 ± 0.08 µM
NC(=O)c1ccc(C(=O)NOCc2ccc(Sc3cccc(Cl)c3)c(C(F)(F)F)c2)cc1,,"male ICR mouse, plasma","oral, 60 mg/kg",,oral bioavailability,10.6%
CC(C)c1cnc(-c2cc(Cl)ccc2F)cc1Nc1ccncc1C(=O)NC(CO)CO,"item: any event, worst grade",human patients,"oral, dose not given, grade 5",,patients with related SAE,0%
CN(C1COC1)C(C)(C)/C=C(\C#N)C(=O)N1CCC[C@H]1Cn1nc(-c2ccc(Oc3ccccc3)cc2F)c2c(N)ncnc21,,"female Sprague-Dawley rat, plasma","oral, 40 mg/kg, 1 h",,concentration,104 ng/mL
CC[C@@H](C)[C@@H](NC(=O)[C@@H](C)NC(=O)[C@@H](CCCCN)NC(=O)[C@@H](CC(C)C)NC(=O)[C@@H](CC(C)C)NC(=O)[C@H](NC(=O)[C@@H](CCCCN)NC(=O)[C@@H](CC(C)C)NC(=O)[C@@H](CCCCN)NC(=O)[C@@H](CCCCN)NC(=O)[C@@H](CCCCN)NC(=O)[C@@H](CCCCN)NC(=O)[C@@H](C)NC(=O)[C@@H](CCCCN)NC(=O)[C@@H](CO)NC(=O)[C@@H](Cc1ccccc1)NC(=O)[C@H](NC(=O)[C@@H](CCCCN)NC(=O)[C@@H](CC(C)C)NC(=O)[C@@H](Cc1ccccc1)NC(=O)[C@@H](CO)NC(=O)[C@@H](CCCCN)NC(=O)[C@@H](Cc1c[nH]c2ccccc12)NC(=O)[C@@H](CCCCN)NC(C)=O)[C@H](C)O)[C@H](C)O)C(=O)N[C@H](CO)C(=O)N[C@H](CCCCN)C(N)=O,RP-HPLC temperature profiling,,"pH 2, 5-80 °C, unit not given",reference: control peptide,self-association parameter,3.07
CN1CCC[C@]1(C)/C=C/S(=O)(=O)NC(=O)Nc1c2c(cc3c1CCC3)CCC2,,"human, plasma","oral, 100 mg twice daily, 14 days, multiple ascending dose",reference: day 14 over day 1,accumulation ratio AUC(0-tau),1.4
CC(=O)N[C@H](CCNC(=O)c1cc(NC(=O)c2cc(NC(=O)c3cc(NC(=O)c4nccn4C)cn3C)cn2C)cn1C)C(=O)Nc1cn(C)c(C(=O)Nc2cc(C(=O)Nc3cc(C(=O)Nc4cc(C(=O)NCCCN(C)CCCN[14C](=O)c5cccc([14C](=O)O)c5)n(C)c4)n(C)c3)n(C)c2)n1,,"NSG male mice, A549 xenograft without Matrigel, liver","intraperitoneal, 20 nmol per animal",,tissue concentration,0.55 mg/kg
[11CH3]c1ccc2nc(C3CCC3)n(-c3ccc4[nH]ncc4c3)c2n1,extrapolated from mouse biodistribution,"human male, red marrow",,,absorbed dose,2.3 µSv/MBq
C=CC(=O)Nc1cccc(-c2cnc3[nH]cc(C(=O)NC(C)(C)C)c3n2)c1,,"mouse, tumour-bearing","ip, 25 and 50 mg/kg, 14 days",,"liver, kidney function and blood counts",no effect
CCCC(CCC)NC(=O)c1ccc(O)c(O)c1,,"female Sprague-Dawley rat, plasma","oral, 200 mg/kg of parent drug",,Tmax,0.31 h
O=C(O)C1OC(OC2C(COS(=O)(=O)O)OC(OC3C(C(=O)O)OC(OC4C(COS(=O)(=O)O)OC(OC5C(C(=O)O)OC(OC6C(COS(=O)(=O)O)OC(OC7C(C(=O)O)OC(OC8C(COS(=O)(=O)O)OC(OC9C(C(=O)O)OC(OC%10C(COS(=O)(=O)O)OC(OC%11C(C(=O)O)OC(Oc%12ccc([N+](=O)[O-])cc%12)C(O)C%11O)C(NS(=O)(=O)O)C%10O)C(OS(=O)(=O)O)C9O)C(NS(=O)(=O)O)C8O)C(OS(=O)(=O)O)C7O)C(NS(=O)(=O)O)C6O)C(OS(=O)(=O)O)C5O)C(NS(=O)(=O)O)C4O)C(OS(=O)(=O)O)C3O)C(NS(=O)(=O)O)C2OS(=O)(=O)O)C(O)C(O)C1OC1OC(COS(=O)(=O)O)C(O)C(O)C1NS(=O)(=O)O (stereo not shown),,rats,"intravenous, 3600 µg/kg/day for 7 days, day 8",,body weight,271 ± 5.9 g
CC(C)(C)NCC(SS(=O)(=O)O)c1ccccc1 (stereo not shown),,"female Swiss Webster mice, plasma","intravenous, 15 mg/kg",,C0,37200 ng/mL
C=C(c1ncc(C(=O)O)cn1)c1cc2c(cc1C)C(C)(C)CCC2(C)C,,"Sprague-Dawley rat, male","oral, 100 mg/kg, 3 h, sesame oil vehicle",,blood triglycerides,164 ± 122 mg/dL
CC[C@H](C)[C@H](NC(=O)[C@H](Cc1ccccc1)NC(=O)[C@H](CCCN)NC(=O)[C@H](CCCNC(=N)N)NC(=O)[C@H](Cc1ccccc1)NC(=O)[C@H](Cc1ccccc1)NC(=O)[C@H](CCCCN)NC(=O)[C@H](CO)NC(=O)[C@H](CC(C)C)NC(=O)[C@H](CCCNC(=N)N)NC(=O)[C@H](CCSC)NC(=O)[C@H](C)N)C(=O)N[C@@H](CC(C)C)C(=O)N[C@@H](CN)C(=O)N[C@@H](CCCNC(=N)N)C(=O)N[C@@H](CCCCN)C(=O)N[C@@H](CCCCN)C(=O)O,circular dichroism,20% TFE in PBS,"200 µM, pH 7.4, 25 °C",,helicity,12.8%
COc1cc(NC(C)=O)c2c(c1O)-c1c(OC)c(OC)cc3c1C(C2)N(C)CC3 (stereo not shown),,rat brain homogenate,"100 µg/mL, time not given, three freeze-thaw cycles",,remaining compound,99.3 ± 3%
CCCCCCCCCCCCCCCC(=O)N[C@@H](CCCCN)C(=O)N[C@@H](CCCCN)C(=O)N[C@@H](CO)C(=O)N[C@@H](CCCNC(=N)N)C(=O)N[C@@H](C)C(=O)N[C@@H](CC(C)C)C(=O)N[C@@H](Cc1ccccc1)C(N)=O,,"cynomolgus monkey, female","30 mg/kg, day 5",,prothrombin time,11.8 ± 0.6 s
CN(Cc1ccc(F)cc1)Cc1cc(=O)oc2cc(O)ccc12,,HepG2 cell medium,"0.5 mM, 0 min",,remaining intact compound,> 99%
CC(=O)N[C@H](CSSC[C@H](N)C(=O)O)C(=O)N[C@H](C)C(=O)N[C@H](CCCNC(=N)N)C(=O)N[C@H](CCCNC(=N)N)C(=O)N[C@H](CCCNC(=N)N)C(=O)N[C@H](C)C(=O)N[C@H](CCCNC(=N)N)C(N)=O,,"male human, plasma","intravenous, 5 mg, single dose, healthy volunteers",,clearance,135 mL/min
O=c1c(/C=N/NC(=S)N/N=C/c2ccccc2O)coc2ccccc12,cyclic voltammetry,anhydrous DMF,"Cu2+ complex, glassy carbon electrode",,peak potential separation,0.172 mV
N=C(N)NCCC[C@@H]1NC(=O)[C@H](Cc2c[nH]c3ccccc23)NC(=O)[C@@H](CC2CCCCC2)NC(=O)[C@@H]2CCCN2C(=O)[C@@H](NC(=O)CCc2ccccc2)CCCNC1=O,,"C57BL/6J mouse, plasma brain","intraperitoneal, 1 mg/kg single dose",,MRT(0-last),0.66 h
COc1ccc(/C=C/c2ccc(-c3ccc(C)cn3)nc2)cc1,,hexanes,added: quinine bisulfate reference,,fluorescence quantum yield,0.6
CC(C)[C@H](NC(=O)CNC(=O)[C@H](CCC(N)=O)NC(=O)[C@H](C)N)C(=O)O,,"male human, plasma","intravenous, 10 mg/kg, single dose",,clearance,950 mL/min/kg
CSCOC1C(=O)C2(C)C(OCSC)CC3OCC3(OC(C)=O)C2C(OC(=O)c2ccccc2)C2(O)CC(OC(=O)C(O)C(C=C(C)C)NC(=O)OC(C)(C)C)C(C)=C1C2(C)C (stereo not shown),,"male Sprague-Dawley rat, plasma","intravenous, 1 mg/kg",,MRT(0-t),4.4 h
COCCn1c2ccc([N+](=O)[O-])cc2c(=O)n1Cc1ccccc1,resazurin,"peritoneal macrophages, BALB/c mice","48 h, 10% FBS",,CC50,4.8 ± 1 µM
CCCC[C@H](NC(=O)CNC(=O)CNC(=O)CN1CCN(CC(=O)O)CCN(CC(=O)O)CC1)C(=O)N[C@H]1CC(=O)NCCCC[C@@H](C(N)=O)NC(=O)[C@H](Cc2c[nH]c3ccccc23)NC(=O)[C@H](CCCNC(=N)N)NC(=O)[C@@H](Cc2ccccc2)NC(=O)[C@H](Cc2c[nH]cn2)NC1=O [copper-64 labelled],,"female C57 mouse, B16/F1 melanoma","intravenous, 0.037 MBq, 0.5 h",reference: tumour over liver,uptake ratio,11.4
CCOc1ccc2cc(-c3nn(CC4CCN(C)CC4)c4ncnc(N)c34)ccc2n1,LC-MS/MS,crossbred piglets (Landrace x Large White),"oral, 10 mg/kg twice daily, 2 h after dose 9, day 7 post-infection",,plasma concentration,10.2 ± 2.9 µM
Cn1c(=O)oc2ccc(-c3ccc(CC(C#N)NC(=O)C4CNCCCO4)c(F)c3)cc21 (stereo not shown),item: acne,human volunteers,"oral, dose not given",,treatment-emergent adverse event incidence,3.7%
O=C(O)c1cccc(S(=O)(=O)Nc2ccccc2)c1,,"human, normal liver function, plasma","intravenous, 400 mg/m^2 belinostat, cycle 1 day -7, geometric mean",reference: metabolite over belinostat,Cmax metabolic ratio,0.117
COC(=O)c1ccc2c(c1)NC(=O)/C2=C(\Nc1ccc2c(c1)CCN2C(=O)CN1CCOCC1)c1ccccc1,,"cynomolgus monkey, blood","intravenous, 2 mg/kg",,clearance,10.2 mL/min/kg
"CNC(=O)N[C@]1(C)CCC[C@@]2(C)C3CC[C@@]4(C)C[C@]3(CCC21)CC4=O (single isomer, unassigned)",,"Sprague-Dawley rat, male, plasma","intravenous, 2 mg/kg",,volume of distribution at steady state,0.63 ± 0.032 L
Cc1ccccc1-c1cc(N2CC[N+](C)([O-])CC2)ncc1N(C)C(=O)C(C)(C)c1cc(C(F)(F)F)cc(C(F)(F)F)c1,,"cancer patients, plasma","oral, dose not given, netupitant-palonosetron single dose, range of means",,AUC(0-inf),3060 to 8530 ng·h/mL
CC[C@H](C)[C@H](NC(=O)[C@H](Cc1ccccc1)NC(=O)[C@H](CCN)NC(=O)[C@H](CCCNC(=N)N)NC(=O)[C@H](Cc1ccccc1)NC(=O)[C@H](Cc1ccccc1)NC(=O)[C@H](CCCCN)NC(=O)[C@H](CO)NC(=O)[C@H](CC(C)C)NC(=O)[C@H](CCCNC(=N)N)NC(=O)[C@H](CCSC)NC(=O)[C@H](C)N)C(=O)N[C@@H](CC(C)C)C(=O)N[C@@H](CCCCN)C(=O)N[C@@H](CCCNC(=N)N)C(=O)N[C@@H](CCCCN)C(=O)N[C@@H](CCCCN)C(=O)O,circular dichroism,20% TFE in PBS,"200 µM, pH 7.4, 25 °C",,helicity,9%
CC1(C)C(=CC=C(C=CC2=[N+](CCC[N+](C)(C)C)c3ccc(S(=O)(=O)[O-])cc3C2(C)C)Oc2ccc(CCC(=O)[O-])cc2)N(CCC[N+](C)(C)C)c2ccc(S(=O)(=O)[O-])cc21,,100% serum,pH 7.4,,absorbance maximum,653 nm
CC(=O)N[C@@H](CC(N)=O)C(=O)NCC(=O)N[C@@H](C)C(=O)N[C@@H](C)C(N)=O,1H NMR,sodium phosphate buffer 50 mM,"pH 6.3, 55 °C",,half-life of Asn form,29.5 h
C[Si]1(C[C@@H](CN)CC(=O)O)CCCC1,,"male Sprague-Dawley rat, plasma","oral, 30 mg/kg, 1 h, single dose",,concentration,32.1 µM
CC(C)[C@H](NC(=O)[C@@H]1CCCN1C(=O)[C@H](CCCNC(=N)N)NC(=O)[C@H](CS)NC(=O)[C@H](Cc1c[nH]c2ccccc12)NC(=O)[C@H](CCCNC(=N)N)NC(=O)[C@@H](Cc1ccccc1)NC(=O)[C@H](Cc1c[nH]cn1)NC(=O)[C@H](CCC(=O)O)NC(=O)[C@H](CS)NC(=O)[C@H](CS)NC(=O)CNC(=O)[C@@H]1CC(=O)N[C@@H](CCCNC(=N)N)C(=O)NCC(=O)N[C@@H](CC(=O)O)C(=O)N[C@H](Cc2ccc(O)cc2)C(=O)N1)C(N)=O [technetium-99m labelled],,"C57 mouse, female, B16/F1 melanoma, spleen","intravenous, 0.037 MBq, 4 h",,tissue uptake,1.18 ± 0.43 %ID/g
